Published values collected from several papers.
Parts stem from different laboratories: compare values within a part only. Positions count from the first letter of the parent shown.

Set 1 — method: protein binding microarray; molecule type: double-stranded DNA, one strand shown; medium: in vitro; tested at: not given; baseline: not given; reading: higher = stronger binding
Target: Histone acetyltransferase KAT6A, both winged helices, GST fusion (KAT6A, Homo sapiens, UniProt Q92794, residues 1-181)
Notes: 8-mer, flanks averaged, mean of 2 arrays, mostly near background
Target sequence (chain): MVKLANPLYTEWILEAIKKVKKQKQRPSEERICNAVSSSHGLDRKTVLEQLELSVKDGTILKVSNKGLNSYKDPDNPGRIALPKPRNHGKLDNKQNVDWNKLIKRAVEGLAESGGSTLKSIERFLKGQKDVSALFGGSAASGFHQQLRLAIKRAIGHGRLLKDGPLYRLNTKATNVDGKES
| Oligonucleotide | E-score |
| --- | --- |
| AGAGCGCG | 0.289 |
| GGTTGGGA | -0.186 |
| CACGGCCG | 0.36 |
| CTGCCCGC | 0.281 |
| GGAAAGTA | -0.0364 |
| TGCTGAAA | -0.136 |
| CACAATTC | 0.0153 |
| GCCGTTAA | 0.238 |
| ATTGTATG | -0.17 |
| CTTCTCCC | -0.189 |
| CCCGAGAG | 0.0798 |
| CAGATGTC | -0.0142 |
| TACTCTCA | -0.152 |
| CAGCCCGC | 0.0632 |
| ATCAACTG | -0.16 |
| GTACAAAC | -0.0186 |
| AACTGTGC | -0.0598 |
| ACCGTGCT | 0.0431 |
| ACGGGCAC | 0.24 |
| AAAGTTAG | -0.00651 |

Set 2 — method: RNA Bind-n-Seq; molecule type: RNA; medium: in vitro; tested at: 365 nM; baseline: no-protein control; reading: higher = stronger binding
Target: RNA binding protein fox-1 homolog 2, RRM domain, GST-SBP tag (RBFOX2, Homo sapiens, UniProt O43251-10, residues 100-194)
Notes: natural RNA segment, single round, ends assumed
Constant ends, left off below: GGGAGUUCUACAGUCCGACGAUC … UGGAAUUCUCGGGUGCCAA
Construct (chain): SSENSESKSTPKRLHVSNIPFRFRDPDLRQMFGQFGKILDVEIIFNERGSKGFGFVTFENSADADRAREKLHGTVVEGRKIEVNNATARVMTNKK
| Oligonucleotide | RBNS enrichment (R) |
| --- | --- |
| CCGCCCCUCCUCCAUACCCCAGGGAUAAUUUUUCCUUCAAACCUUCCCUUUCCAAGGGACACUGGGUUUGCAGACAGCAAGGCUAUGUGGCAGAGAAGAAAAAGUCCAGC | 0.367 |
| CCCAUGCAGUCAAAGCUUAUAAAGUUAUUUGCCUUAGGCAAAGCCAUUCAUUUCUUUUACCUAUAGUGAAAUUAUUGAAUAGUAGUUUUUCUGAACUGUUGGAUUCUAGG | 0.329 |
| UCAAGAAGUAAGAGCUAAGUUCUAAGUUCAUGUUUGUAAAUUAAUACUUCAUUUGGUGCUGGUCUAUUUUGAUUUUGGGGGGUAAUCAGCAUUAUUCUUCAGAAGGGGAC | 0.594 |
| UGUCAGCAUUUCGGUCUGCAUAUCUGUGUGUCCGUAUCUGCGUUUGUGUGCGUGUACGUGUGCCCCUGUGUGUGGGCCCAGUUUUCAGGCAUGUAGAAUAAGCAUGGAGU | 1.83 |
| AGUUGGCCAGCACUAACUCCACCUCUGUUCUCCUUGAACAGCUUCCCCUCCAGCCCACUGCUUUAGGAUGACACAAUGAAUAACACCUAGUCAUAGAAAUCAGUCUCUCU | 0.268 |
| GCUCCGGGCCAGCAUGUUGGAAUCCAGCGUGGAGCAGAUGCAGUAAAAAUGUGGUUGGUUUCUGUGUAAGCGCUGUUGUUGUUCUUUUGUUCUCUCACUCUCAUCUUUUA | 23.9 |
| CUGUGGGAUUUGUGGACACUUAAGAAACGGACUGAGUGGGAACCCUGCAGCCAGGGGAUGGGGAGCCUCUGCUCCCCCCAUGCUCCCACCCUGGCUGAGGGCCAGCCUCA | 0.551 |
| AGUGUGUUGGGAAUUGCAUGCCAUCUCCACCCUGAGCCUGACCUUUCUGAGUGACAUGGGUGUGCCAGGCUAGACUAGGAGGUUCCGGUGUCUGGAAAAGCACUUUACAG | 27.6 |
| GUCAUAGAAUUGAUUACCCGCCGAAUUCAUUAAUUUACUGUAGUGUUAAGAGAAGCACUAAGAAUGCCAGUGACCUGUGUAAAAGUUACAAGUAAUAGAACUAUGACUGU | 26.8 |
| CCCUAUGUCUUCUGUGGAGUUACAGUAUAAAGCAGGGAGCUAAUUAAGAGUAUUAAAACUUAAAACCAUUUUUUGACUCUGAUUUUAAGUACAUUUUUAUAUGUCAGUUG | 0.437 |
| CACCCAACUCCCUCUGCCUCUCCCCAAACCGGGCCGCCAGGAUCCCUCCCCGCGGCAGCGAUGGCCCGAGCCAUGAGAGUGAGGACUUUCCGCGCCCAUUGGUGACCCUU | 0.37 |
| GACUGCCUGCCCACCCUGAGGUCCCCGACUGGCCAGGGCCACUCAGCUGCCCCUGUCCCCACCUCUGGAGAAUCCACCCCCACCAGAUUCCUCCGCGGGAGGUGGCCCUC | 0.312 |

Set 3 — method: competition protein-binding microarray; molecule type: double-stranded DNA, one strand shown; medium: in vitro; tested at: 2 µM; together with: Pho4 competitor, 0.05 µM; reading: higher = stronger binding; constant ends, left off below: … GTCTTGATTCGCTTGACGCTGCTG
Target: Centromere-binding protein 1, full length, His-tagged (CBF1, Saccharomyces cerevisiae, UniProt P17106, residues 1-351)
Sequence of UniProt P17106 (whole entry, looked up): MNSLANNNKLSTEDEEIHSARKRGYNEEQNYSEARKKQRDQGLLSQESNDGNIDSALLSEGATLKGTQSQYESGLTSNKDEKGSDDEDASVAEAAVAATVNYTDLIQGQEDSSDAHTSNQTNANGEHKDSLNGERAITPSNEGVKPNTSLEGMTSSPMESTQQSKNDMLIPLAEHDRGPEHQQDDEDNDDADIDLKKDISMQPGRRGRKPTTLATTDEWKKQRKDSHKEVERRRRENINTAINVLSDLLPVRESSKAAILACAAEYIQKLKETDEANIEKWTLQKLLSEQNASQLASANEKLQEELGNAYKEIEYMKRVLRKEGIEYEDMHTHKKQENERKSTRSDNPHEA
Notes: whole 60-bp probe, lowest competitor level
| Oligonucleotide | fluorescence intensity [a.u.] |
| --- | --- |
| GTAAGGGTGAGGGGCCACGTGGCAATCAGAGCAGCT | 847 |
| CTTTCCCGATCTTGTCACGAAACTTTAGCACATTTG | 84.3 |
| TCTGTATGGGTTTGTCATGCTGCTCTGGCCCTTTGT | 65.5 |
| TTACTTTCTCTCGCGGTTGTGACGGCCTTCAATGAA | 67.9 |
| GATATGTTTCTAATGCGCGTGTGAAGGGAATTTCGG | 89.4 |
| GATTTGTTGTGTAATAGCGTGATGGGCACTTGAATG | 152 |
| CGTCCTAGTGATTGTCACACGACTTCCATGAGGAAG | 126 |
| CATAGATCGCACCAGCGCGTGGGTATCTTTCATTAT | 70.8 |
| GTCTTGTCTCATTTTCACGTGCCTTTCCCCACTTCA | 991 |
| TTTCATAGAAACAAATCCGTGATGGTTTAATGGTCA | 87.1 |
| CTTTCCCGATCTTGCTGGGTGGGTGTAGCACATTTG | 75.5 |
| TGCGCAACAACTTCCCACGTGTTTTTATGTCTAGAA | 1280 |
| AGTCTCATCTTCTTTCCCGTGCCGACGGGTTTAGTA | 68.2 |
| TACTTTTTCCGGTGGCCCGTGATGGGTTTGTAACAG | 143 |
| CGGGGTTAAGTTTGTAGGGTGGGTGGCTTGCAGCAG | 67.8 |
| TCAAATATTCCATCGCACGTGTAGTACCCAATGGTT | 968 |
| CGTCCTAGTGATTGGTAGGTGGGTGCCATGAGGAAG | 76.6 |
| GAGGCTTGGCAGTTCCACGTGGAAGACCTGACGGAG | 435 |
| TTAGAATCGCTTTGTCACGTTTTTTTTTATTTCTTG | 1300 |
| CTTTCCCGATCTTGTCACTCCACTTTAGCACATTTG | 76.2 |
| CTCTTCAGAGGTAATTGCATGACAGCAAGATTCGCG | 81.7 |
| TTGGGCTGGTGCGATTTCGTGGGTAGTATTCAGGAC | 72.9 |

Set 4 — target: FOSB, bZIP domain (human); method: DHFR protein complementation; medium: yeast; baseline: wild-type JUN-FOS pair; reading: higher = stronger binding
Notes: single substitutions, most at no-binding floor
Starting sequence: JUN, bZIP domain (human); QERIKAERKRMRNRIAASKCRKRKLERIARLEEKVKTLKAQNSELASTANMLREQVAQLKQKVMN; partner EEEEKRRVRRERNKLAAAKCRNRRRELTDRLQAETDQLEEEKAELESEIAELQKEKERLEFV
| Variant | binding fitness |
| --- | --- |
| L45I | -1.08 natural log |
| S47W | -0.188 natural log |
| Q41W | -1.14 natural log |
| T48M | -0.165 natural log |
| R30T | 0.105 natural log |
| Q55L | -0.241 natural log |
| T37H | 0.0534 natural log |
| E32K | -0.0582 natural log |
| L59G | -1 natural log |
| V35S | -0.474 natural log |
| L38Q | -0.339 natural log |
| K36R | -0.00452 natural log |
| L31I | -0.422 natural log |
| E32L | -0.168 natural log |
| T37Q | 0.104 natural log |
| A57G | -0.12 natural log |
| E54K | -0.287 natural log |
| E32G | -0.339 natural log |
| L38C | -1.11 natural log |
| I28P | -0.297 natural log |
| S43T | 0.0192 natural log |
| V35L | -0.125 natural log |
| Q41V | -0.122 natural log |
| T48D | -0.504 natural log |
| A49D | -1.2 natural log |

Set 5 — method: DHFR PCA, deep sequencing; medium: yeast; together with: (+)-ABA 0.11 µM; baseline: wild-type fitted maximum; reading: higher = stronger binding
Target: ABI1, truncated, D143A, DHFR fusion (Arabidopsis thaliana)
Notes: methotrexate growth selection, single substitutions
Starting sequence: PYL1, truncated, DHFR fusion (Arabidopsis thaliana); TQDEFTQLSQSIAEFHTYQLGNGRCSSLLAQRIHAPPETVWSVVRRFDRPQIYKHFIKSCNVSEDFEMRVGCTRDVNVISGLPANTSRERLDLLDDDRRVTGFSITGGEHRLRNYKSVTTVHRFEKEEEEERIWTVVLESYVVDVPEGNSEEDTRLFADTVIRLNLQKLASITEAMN; partner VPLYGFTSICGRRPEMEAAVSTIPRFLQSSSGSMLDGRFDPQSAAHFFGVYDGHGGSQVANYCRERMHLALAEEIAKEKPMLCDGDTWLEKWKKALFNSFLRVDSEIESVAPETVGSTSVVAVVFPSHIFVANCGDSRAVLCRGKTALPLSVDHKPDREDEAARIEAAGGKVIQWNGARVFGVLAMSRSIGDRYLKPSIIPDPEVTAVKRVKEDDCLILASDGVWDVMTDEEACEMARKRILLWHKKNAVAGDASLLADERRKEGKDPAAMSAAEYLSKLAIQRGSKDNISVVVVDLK
| Variant | relative binding score [%] |
| --- | --- |
| R74Q | -1.94 |
| Q7T | 29.6 |
| L8W | 12.1 |
| E64Q | 45.9 |
| V118T | 31.3 |
| V62N | -3.45 |
| N149W | 11.2 |
| D92R | 18.4 |
| I52V | 53.6 |
| R155A | -5.6 |
| V70A | 11 |
| M176P | 14.7 |
| I105C | -3.42 |
| N22V | 38.2 |
| T119L | 5.65 |
| E147D | 37.5 |
| K54N | 3.05 |
| Q167K | 34.8 |
| I33Y | 0.59 |
| E129Y | 16.4 |
| K54H | 1.26 |
| Q19S | 36.6 |

For quick reference, copied from above (set 2):
| Oligonucleotide | RBNS enrichment (R) |
| --- | --- |
| CCGCCCCUCCUCCAUACCCCAGGGAUAAUUUUUCCUUCAAACCUUCCCUUUCCAAGGGACACUGGGUUUGCAGACAGCAAGGCUAUGUGGCAGAGAAGAAAAAGUCCAGC | 0.367 |
| CCCAUGCAGUCAAAGCUUAUAAAGUUAUUUGCCUUAGGCAAAGCCAUUCAUUUCUUUUACCUAUAGUGAAAUUAUUGAAUAGUAGUUUUUCUGAACUGUUGGAUUCUAGG | 0.329 |
| UCAAGAAGUAAGAGCUAAGUUCUAAGUUCAUGUUUGUAAAUUAAUACUUCAUUUGGUGCUGGUCUAUUUUGAUUUUGGGGGGUAAUCAGCAUUAUUCUUCAGAAGGGGAC | 0.594 |
| UGUCAGCAUUUCGGUCUGCAUAUCUGUGUGUCCGUAUCUGCGUUUGUGUGCGUGUACGUGUGCCCCUGUGUGUGGGCCCAGUUUUCAGGCAUGUAGAAUAAGCAUGGAGU | 1.83 |
| AGUUGGCCAGCACUAACUCCACCUCUGUUCUCCUUGAACAGCUUCCCCUCCAGCCCACUGCUUUAGGAUGACACAAUGAAUAACACCUAGUCAUAGAAAUCAGUCUCUCU | 0.268 |
| GCUCCGGGCCAGCAUGUUGGAAUCCAGCGUGGAGCAGAUGCAGUAAAAAUGUGGUUGGUUUCUGUGUAAGCGCUGUUGUUGUUCUUUUGUUCUCUCACUCUCAUCUUUUA | 23.9 |
| CUGUGGGAUUUGUGGACACUUAAGAAACGGACUGAGUGGGAACCCUGCAGCCAGGGGAUGGGGAGCCUCUGCUCCCCCCAUGCUCCCACCCUGGCUGAGGGCCAGCCUCA | 0.551 |
| AGUGUGUUGGGAAUUGCAUGCCAUCUCCACCCUGAGCCUGACCUUUCUGAGUGACAUGGGUGUGCCAGGCUAGACUAGGAGGUUCCGGUGUCUGGAAAAGCACUUUACAG | 27.6 |
